# Experimental data collected from several papers.
# Lines come from different studies, so protocols differ. “And” joins repeats or separate records; there may be more than shown.
# PIK3CA: Phosphatidylinositol 4,5-bisphosphate 3-kinase catalytic subunit alpha isoform (PIK3CA, Homo sapiens, UniProt P42336)
# Sequence of UniProt P42336 (whole entry, looked up): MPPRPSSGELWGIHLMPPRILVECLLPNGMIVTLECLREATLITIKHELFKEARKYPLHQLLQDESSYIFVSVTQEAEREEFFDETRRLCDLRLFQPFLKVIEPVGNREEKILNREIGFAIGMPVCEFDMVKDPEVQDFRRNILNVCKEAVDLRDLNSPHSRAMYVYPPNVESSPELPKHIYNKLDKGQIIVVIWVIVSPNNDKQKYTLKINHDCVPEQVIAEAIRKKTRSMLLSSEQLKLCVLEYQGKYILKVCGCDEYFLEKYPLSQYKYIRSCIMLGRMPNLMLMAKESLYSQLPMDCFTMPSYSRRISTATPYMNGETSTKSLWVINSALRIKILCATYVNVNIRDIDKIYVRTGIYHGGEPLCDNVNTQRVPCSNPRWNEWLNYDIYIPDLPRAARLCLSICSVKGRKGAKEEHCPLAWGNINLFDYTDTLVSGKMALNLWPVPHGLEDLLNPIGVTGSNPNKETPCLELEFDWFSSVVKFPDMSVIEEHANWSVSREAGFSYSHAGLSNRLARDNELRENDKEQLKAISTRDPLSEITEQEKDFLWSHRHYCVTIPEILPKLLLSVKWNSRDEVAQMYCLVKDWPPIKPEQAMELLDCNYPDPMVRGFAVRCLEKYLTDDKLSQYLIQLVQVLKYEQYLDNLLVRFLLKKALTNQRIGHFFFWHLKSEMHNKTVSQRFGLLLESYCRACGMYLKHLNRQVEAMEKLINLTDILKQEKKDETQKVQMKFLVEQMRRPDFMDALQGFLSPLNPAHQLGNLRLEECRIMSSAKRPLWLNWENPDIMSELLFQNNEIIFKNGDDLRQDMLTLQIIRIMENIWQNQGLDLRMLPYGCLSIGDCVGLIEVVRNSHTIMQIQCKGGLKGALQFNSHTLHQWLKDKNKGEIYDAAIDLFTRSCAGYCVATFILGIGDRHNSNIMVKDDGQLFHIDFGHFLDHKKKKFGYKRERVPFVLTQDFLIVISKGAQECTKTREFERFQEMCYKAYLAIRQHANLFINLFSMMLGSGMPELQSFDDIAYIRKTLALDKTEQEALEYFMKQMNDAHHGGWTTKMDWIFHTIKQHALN
# CHEK1: Serine/threonine-protein kinase Chk1 (CHEK1, Homo sapiens, UniProt O14757)
# Sequence of UniProt O14757 (whole entry, looked up): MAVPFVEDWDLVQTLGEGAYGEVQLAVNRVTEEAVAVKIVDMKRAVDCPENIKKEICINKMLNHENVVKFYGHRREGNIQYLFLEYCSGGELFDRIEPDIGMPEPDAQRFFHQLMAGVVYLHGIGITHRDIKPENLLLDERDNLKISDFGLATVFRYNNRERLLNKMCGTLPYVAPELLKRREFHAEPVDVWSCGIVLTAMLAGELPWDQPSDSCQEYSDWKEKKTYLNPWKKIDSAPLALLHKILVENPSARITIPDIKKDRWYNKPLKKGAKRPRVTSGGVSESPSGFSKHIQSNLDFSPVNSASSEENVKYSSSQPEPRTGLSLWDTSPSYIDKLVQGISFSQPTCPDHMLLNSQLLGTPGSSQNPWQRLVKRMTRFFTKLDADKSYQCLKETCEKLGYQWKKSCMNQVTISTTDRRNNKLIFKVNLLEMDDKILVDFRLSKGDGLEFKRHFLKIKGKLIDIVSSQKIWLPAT
# rep papain-like protease: Replicase polyprotein 1ab, papain-like protease (rep, Porcine epidemic diarrhea virus, UniProt P0C6Y4)
# CA9: Carbonic anhydrase 9 (CA9, Homo sapiens, UniProt Q16790)
# PPO3: PPO3 (Agaricus bisporus, UniProt C7FF04)
# Sequence of UniProt C7FF04 (whole entry, looked up): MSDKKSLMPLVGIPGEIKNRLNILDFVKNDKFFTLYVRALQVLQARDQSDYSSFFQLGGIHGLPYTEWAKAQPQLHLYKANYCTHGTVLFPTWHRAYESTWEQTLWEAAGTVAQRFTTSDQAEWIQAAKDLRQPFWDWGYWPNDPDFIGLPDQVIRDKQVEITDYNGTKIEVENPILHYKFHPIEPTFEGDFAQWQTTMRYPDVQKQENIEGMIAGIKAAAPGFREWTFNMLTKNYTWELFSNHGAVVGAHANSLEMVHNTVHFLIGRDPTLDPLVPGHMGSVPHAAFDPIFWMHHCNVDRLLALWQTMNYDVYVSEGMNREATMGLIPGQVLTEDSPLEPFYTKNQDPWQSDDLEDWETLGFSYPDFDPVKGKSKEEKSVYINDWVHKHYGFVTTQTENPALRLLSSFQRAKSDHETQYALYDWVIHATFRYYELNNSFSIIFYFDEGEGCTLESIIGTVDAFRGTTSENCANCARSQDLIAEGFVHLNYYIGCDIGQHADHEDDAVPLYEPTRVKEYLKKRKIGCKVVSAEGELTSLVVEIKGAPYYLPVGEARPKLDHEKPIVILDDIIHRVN
# FLT3 ITD: Receptor-type tyrosine-protein kinase FLT3 (FLT3, Homo sapiens, UniProt P36888, ITD)
# PIK3CD: Phosphatidylinositol 4,5-bisphosphate 3-kinase catalytic subunit delta isoform (PIK3CD, Homo sapiens, UniProt O00329)
# Sequence of UniProt O00329 (whole entry, looked up): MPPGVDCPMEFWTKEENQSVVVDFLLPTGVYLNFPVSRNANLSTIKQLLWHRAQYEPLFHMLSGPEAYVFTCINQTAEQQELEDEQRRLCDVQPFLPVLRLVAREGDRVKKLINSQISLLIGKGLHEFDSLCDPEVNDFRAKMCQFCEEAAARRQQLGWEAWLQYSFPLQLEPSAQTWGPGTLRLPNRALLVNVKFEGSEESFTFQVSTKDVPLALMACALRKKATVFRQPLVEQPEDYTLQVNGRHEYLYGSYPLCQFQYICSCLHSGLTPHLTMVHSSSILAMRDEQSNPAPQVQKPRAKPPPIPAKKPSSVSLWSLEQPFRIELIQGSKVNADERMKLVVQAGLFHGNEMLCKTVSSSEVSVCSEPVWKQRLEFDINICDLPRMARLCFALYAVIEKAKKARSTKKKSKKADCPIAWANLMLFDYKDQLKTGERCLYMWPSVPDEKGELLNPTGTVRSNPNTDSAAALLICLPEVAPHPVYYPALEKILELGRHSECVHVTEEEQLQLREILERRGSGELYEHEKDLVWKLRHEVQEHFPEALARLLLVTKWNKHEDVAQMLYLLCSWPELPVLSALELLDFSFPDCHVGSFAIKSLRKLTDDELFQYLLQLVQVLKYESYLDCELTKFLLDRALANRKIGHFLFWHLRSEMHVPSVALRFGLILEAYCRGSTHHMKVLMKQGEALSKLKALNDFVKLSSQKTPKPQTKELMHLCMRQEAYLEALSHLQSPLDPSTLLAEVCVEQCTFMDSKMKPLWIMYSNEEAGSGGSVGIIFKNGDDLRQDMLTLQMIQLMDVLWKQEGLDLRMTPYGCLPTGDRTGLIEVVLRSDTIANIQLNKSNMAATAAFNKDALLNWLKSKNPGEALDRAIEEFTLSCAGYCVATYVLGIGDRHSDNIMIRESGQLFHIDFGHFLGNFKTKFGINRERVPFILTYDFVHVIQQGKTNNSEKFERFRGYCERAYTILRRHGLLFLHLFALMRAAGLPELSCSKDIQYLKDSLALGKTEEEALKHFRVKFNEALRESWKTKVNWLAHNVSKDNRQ
# AMY2: Pancreatic alpha-amylase (AMY2, Sus scrofa, UniProt P00690)
# Sequence of UniProt P00690 (whole entry, looked up): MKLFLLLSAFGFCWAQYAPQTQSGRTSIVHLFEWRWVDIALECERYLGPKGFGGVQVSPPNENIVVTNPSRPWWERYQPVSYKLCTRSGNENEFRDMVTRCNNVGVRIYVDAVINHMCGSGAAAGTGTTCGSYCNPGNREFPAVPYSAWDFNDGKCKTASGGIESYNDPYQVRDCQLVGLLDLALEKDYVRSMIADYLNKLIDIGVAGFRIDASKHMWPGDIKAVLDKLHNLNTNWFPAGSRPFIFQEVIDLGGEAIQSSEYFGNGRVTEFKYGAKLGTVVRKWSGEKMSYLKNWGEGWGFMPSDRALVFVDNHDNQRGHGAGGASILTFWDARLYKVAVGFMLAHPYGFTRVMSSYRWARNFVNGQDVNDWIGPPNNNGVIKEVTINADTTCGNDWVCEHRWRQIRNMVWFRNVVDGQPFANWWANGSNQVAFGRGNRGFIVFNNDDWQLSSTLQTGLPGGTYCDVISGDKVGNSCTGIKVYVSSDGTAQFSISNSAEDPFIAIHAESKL
# DYRK1A: Dual specificity tyrosine-phosphorylation-regulated kinase 1A (DYRK1A, Homo sapiens, UniProt Q13627)
# Sequence of UniProt Q96GD4 (whole entry, looked up): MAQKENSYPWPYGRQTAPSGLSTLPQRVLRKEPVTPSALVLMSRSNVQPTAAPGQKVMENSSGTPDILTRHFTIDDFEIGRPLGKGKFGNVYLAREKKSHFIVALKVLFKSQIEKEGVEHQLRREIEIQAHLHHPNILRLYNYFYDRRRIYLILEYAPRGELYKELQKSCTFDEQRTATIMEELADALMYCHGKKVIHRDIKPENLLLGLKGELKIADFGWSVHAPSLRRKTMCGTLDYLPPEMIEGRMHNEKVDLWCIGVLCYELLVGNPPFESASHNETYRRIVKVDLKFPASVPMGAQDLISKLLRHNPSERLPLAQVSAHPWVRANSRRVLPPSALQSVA
SMILES,target,observed,action,technique,IC50
O=C1C(=Nc2ccc(Cl)cc2Br)c2ccccc2N1Cc1ccc([N+](=O)[O-])cc1,PIK3CA,enzyme activity,inhibitor,ADP detection,0.0345 µM
COc1cc(-c2ccc3c(c2)Nc2ccc(NC(=O)c4ccccn4)cc2NC3=O)ccc1[N+](=O)[O-],CHEK1,enzyme activity,inhibitor,,0.0666 µM
CN(C)c1ccc(C(=O)NCc2cc(O)c(O)c(Br)c2)cc1,rep papain-like protease,enzyme activity,inhibitor,FRET,7.13 µM
COC(=O)c1ccc2[nH]cc(C3CCN(C(=O)c4cc(C)c(C)c(S(N)(=O)=O)c4)CC3)c2c1,CA9,enzyme activity,inhibitor,,0.152 µM
Cc1ccc(NC(=O)CSc2nc3ccccc3cc2C=Nn2c(S)nnc2-c2ccccc2)cc1,PPO3,enzyme activity,inhibitor,,20.9 µM
CC(C)NCCCC[C@H](NC(=O)[C@H]1CCC(=O)N[C@@H](Cc2ccccc2)C(=O)N[C@@H](Cc2ccc(O)cc2)C(=O)N[C@@H](CCCCNC(C)C)C(=O)N[C@H](CCCNC(=N)N)C(=O)N[C@@H](Cc2ccc3ccccc3c2)C(=O)NCC(=O)N1)C(N)=O,"C-X-C chemokine receptor type 4 (Mus musculus, UniProt P70658)",ligand displacement in cells,,flow cytometry,0.0175 µM
O=C(Cc1ccc2c(c1)NC(=O)c1ccc(-c3ccc(Cl)c(F)c3)cc1N2)Nc1ccc(N2CCOCC2)cc1,CHEK1,enzyme activity,inhibitor,,0.777 µM
NNC(=O)C(=O)N1CCOCC1,"Beta-2 adrenergic receptor (ADRB2, Homo sapiens, UniProt P07550)",calcium signal,antagonist,fluorescence,48 µM
CN(C)CCNC(=O)c1ccc(-c2nc3ccc4[nH]ncc4c3c3c2CCCC3)s1,FLT3 ITD,enzyme activity,inhibitor,,0.033 µM
COc1cc(-c2ccc3c(c2)Nc2ccc(CC(=O)O)cc2NC3=O)ccn1,CHEK1,enzyme activity,inhibitor,,0.369 µM
CC(Sc1ccc(NC(=O)c2ccccc2C(=O)O)cc1)C(=O)Nc1ccc(S(N)(=O)=O)cc1 (stereo not shown),CA9,enzyme activity,inhibitor,,0.0309 µM
COc1cc(CNC(=O)c2ccccc2C)cc(Br)c1OC,rep papain-like protease,enzyme activity,inhibitor,FRET,5.95 µM
O=C1C(=Nc2ccccc2I)c2ccccc2N1Cc1ccc([N+](=O)[O-])cc1,PIK3CD,enzyme activity,inhibitor,ADP detection,0.00771 µM
Clc1ccc(/C=N/N=C/c2ccc(Cl)cc2Cl)c(Cl)c1,AMY2,enzyme activity,inhibitor,,321 µM
COc1cc(-c2ccc3c(c2)Nc2ccc(NC(=O)c4cn[nH]c4)cc2NC3=O)ccc1[N+](=O)[O-],CHEK1,enzyme activity,inhibitor,,0.00548 µM
O=C1Nc2ccccc2C1=Nc1cccc(Cl)c1,PIK3CA,enzyme activity,inhibitor,ADP detection,0.511 µM
C/C(=N\CC(C)C)c1c(O)c2ccccc2oc1=O,"Myosin-7 (MYH7, Bos taurus, UniProt Q9BE39)",ATPase activity,inhibitor,,< 100 µM
O=C1C(=Nc2ccccc2Br)c2ccccc2N1Cc1ccccc1,PIK3CD,enzyme activity,inhibitor,ADP detection,0.0749 µM
COc1cc(-c2ccc3c(c2)Nc2ccc(NC(=O)Cc4cnc[nH]4)cc2NC3=O)ccc1[N+](=O)[O-],CHEK1,enzyme activity,inhibitor,,0.0642 µM
Cc1nn(C)c2ncc(C(=O)NCc3ccccc3)c(Cl)c12,"60 kDa heat shock protein, mitochondrial (Homo sapiens, UniProt P10809)",ATPase activity,inhibitor,,> 250 µM
O=C(CSc1nc2ccccc2cc1C=Nn1c(S)nnc1-c1ccccc1)Nc1ccc(Cl)cc1,PPO3,enzyme activity,inhibitor,,30.9 µM
CCN1CCN(Cc2ccc3c(c2)-c2n[nH]c(-c4cccc(OC)c4)c2C3)CC1,CHEK1,enzyme activity,inhibitor,,3.95 µM
CC(C)c1cccc(C(C)C)c1N=C1C(=O)N(Cc2ccccc2)c2ccccc21,PIK3CA,enzyme activity,inhibitor,ADP detection,0.0368 µM
CN(C)C(=O)c1cc2cnc(Nc3cc(C(F)(F)F)c(-c4cccc5c(=O)cc(N6CCOCC6)oc45)cn3)nc2n1C1CCCC1,"Cyclin-dependent kinase 4, with cyclin D1 (CDK4, Homo sapiens, UniProt P11802)",enzyme activity,inhibitor,radiometric,> 10 µM
CNC(=O)c1ccc2c(c1)CC(C)N2Cc1ccoc1C(=O)Nc1ccc(S(N)(=O)=O)cc1 (stereo not shown),CA9,enzyme activity,inhibitor,,0.02 µM
Cc1nc(Nc2ccc3c(c2)/C(=C/c2ccccc2C)C(=O)N3C)c2ccccc2n1,"Phosphatidylinositol 4,5-bisphosphate 3-kinase catalytic subunit gamma isoform (PIK3CG, Homo sapiens, UniProt P48736)",enzyme activity,inhibitor,ADP detection,0.0961 µM
c1cnn2ncc(-c3ccnc(N4C[C@@H]5C[C@H]4CO5)n3)c2c1,DYRK1A,cell-free assay,,TR-FRET,2.82 µM
O=C(NCc1cc(O)c(O)c(Br)c1)c1cccc(C(F)(F)F)c1,"Replicase polyprotein 1ab, main protease (rep, Porcine epidemic diarrhea virus, UniProt P0C6Y4)",enzyme activity,inhibitor,FRET,8.21 µM
NS(=O)(=O)c1ccc(F)c(CNC(=O)Nc2ccc(C(=O)N3CCCC3c3ccccc3)cc2)c1 (stereo not shown),CA9,enzyme activity,inhibitor,,12.4 µM
O=C1C(=Nc2ccc(Cl)cc2)c2ccccc2N1Cc1ccc(Br)cc1,PIK3CD,enzyme activity,inhibitor,ADP detection,0.0852 µM
CN(C)C(=O)c1cc2cnc(Nc3cc(C(F)(F)F)c(-c4ccc5c(=O)cc(N6CCOCC6)oc5c4)cn3)nc2n1C1CCCC1,PIK3CD,enzyme activity,inhibitor,radiometric,9.11 µM
CC[C@@](O)(c1cnc(C(F)(F)F)c(Cl)c1)c1c2cnn(C3CC3)c(=O)c2nn1C,"Dihydroorotate dehydrogenase (quinone), mitochondrial (Dhodh, Mus musculus, UniProt O35435)",enzyme activity,inhibitor,absorbance,8.7 µM
Cn1cc(-c2ccc(-n3nc(C(=O)Nc4ccc(S(N)(=O)=O)cc4)cc3-c3ccco3)cc2)nn1,CA9,enzyme activity,inhibitor,,0.00141 µM
CN1CCN(C(=O)c2ccc(-c3nc4ccc5[nH]ncc5c4c4c3CCCC4)cc2)CC1,FLT3 ITD,enzyme activity,inhibitor,,> 1 µM
c1cnn2ncc(-c3ccnc(N4CCCNCC4)n3)c2c1,DYRK1A,cell-free assay,,TR-FRET,1.29 µM
O=C(O)Cc1ccc2c(c1)NC(=O)c1ccc(-c3cccc([N+](=O)[O-])c3)cc1N2,CHEK1,enzyme activity,inhibitor,,2.19 µM
Cc1ccc2[nH]c(=O)c(CNC3CCCCC3)cc2c1,"Alpha-1B adrenergic receptor (ADRA1B, Homo sapiens, UniProt P35368)",calcium signal,antagonist,,2.88 µM
CC(C)[C@H]1CN(c2nccc(-c3cnn4ncccc34)n2)CCN1,DYRK1A,cell-free assay,,TR-FRET,0.631 µM
Cc1n[nH]c2ccc3nc(-c4ccc(C(=O)NCCN(C)C)cc4F)c4c(c3c12)CCCCC4,FLT3 ITD,enzyme activity,inhibitor,,0.036 µM
Cn1nccc1[C@]1(CNC(=O)c2cccc(F)c2-c2ccc(C(F)(F)F)cc2)NC(=O)NC1=O,"A disintegrin and metalloproteinase with thrombospondin motifs 7 (Homo sapiens, UniProt Q9UKP4)",enzyme activity,inhibitor,FRET,0.00445 µM
Clc1ccc(C2(c3ccc(-c4cn[nH]c4)cc3)CCNCC2)cc1,"Serine/threonine-protein kinase LATS2 (LATS2, Homo sapiens, UniProt Q9NRM7)",enzyme activity,inhibitor,radiometric,0.058 µM
N#Cc1cnc(NC(=O)Nc2ccc(C(=O)O)cc2OC(F)(F)F)cn1,CHEK1,enzyme activity,inhibitor,,0.168 µM
Cc1nc(Nc2ccc3c(c2)/C(=C/c2ccccc2)C(=O)N3C)c2ccccc2n1,PIK3CA,enzyme activity,inhibitor,ADP detection,0.0184 µM
CN1CCN(c2ccc(Nc3ncc4cc(C#N)c(=O)n(C5CCCC5)c4n3)cc2)CC1,"Serine/threonine-protein kinase MARK1 (MARK1, Homo sapiens, UniProt Q9P0L2)",enzyme activity,inhibitor,,0.541 µM
CC(=O)Nc1cccc2oc(C(=O)NC3CCCN(CC(=O)Nc4ccc(S(N)(=O)=O)cc4)C3)cc12 (stereo not shown),CA9,enzyme activity,inhibitor,,0.0427 µM
CCCC(=O)NCCCN1CCc2c([nH]c3ccc(Cl)cc23)C1,"Sodium-dependent dopamine transporter (SLC6A3, Homo sapiens, UniProt Q01959, F320Y)",transporter uptake,inhibitor,,22.1 µM
CC(C)c1cccc(C(C)C)c1N=C1C(=O)Nc2ccccc21,PIK3CA,enzyme activity,inhibitor,ADP detection,0.0154 µM
CN(C)C(=O)c1cc2cnc(Nc3ccc(-c4cccc5c(=O)cc(N6CCOCC6)oc45)cc3)nc2n1C1CCCC1,"Aurora kinase B (AURKB, Homo sapiens, UniProt Q96GD4)",enzyme activity,inhibitor,,0.0329 µM and < 0.033 µM
Cc1cc(C(=O)N(CC(=O)Nc2ccccc2F)Cc2ccc(-c3cn(C)nn3)cc2)ccc1S(N)(=O)=O,CA9,enzyme activity,inhibitor,,0.0269 µM
Cc1nc(N(Cc2ccccc2)c2ccc3c(c2)/C(=C/c2ccccc2)C(=O)N3Cc2ccccc2)c2ccccc2n1 (mixture of isomers),PIK3CD,enzyme activity,inhibitor,ADP detection,0.342 µM
CC(C)(C)OC(=O)NCc1ccc(-c2cccc(C(=O)Nc3ccc(S(N)(=O)=O)cc3)c2)cc1,CA9,enzyme activity,inhibitor,,0.075 µM
Brc1cccc(/C=N/N=C/c2cccc(Br)c2)c1,AMY2,enzyme activity,inhibitor,,269 µM

# A few entries again:
SMILES,target,observed,action,technique,IC50
c1cnn2ncc(-c3ccnc(N4C[C@@H]5C[C@H]4CO5)n3)c2c1,DYRK1A,cell-free assay,,TR-FRET,2.82 µM
O=C(NCc1cc(O)c(O)c(Br)c1)c1cccc(C(F)(F)F)c1,"Replicase polyprotein 1ab, main protease (rep, Porcine epidemic diarrhea virus, UniProt P0C6Y4)",enzyme activity,inhibitor,FRET,8.21 µM
NS(=O)(=O)c1ccc(F)c(CNC(=O)Nc2ccc(C(=O)N3CCCC3c3ccccc3)cc2)c1 (stereo not shown),CA9,enzyme activity,inhibitor,,12.4 µM
